Experimental data collected from several papers.
Every numbered part comes from another study and shows a few of its results, in no order.

Study 1 — method: aptamer microarray, sandwich; form: DNA with 2'F-ANA; medium: in vitro; tested at: 200 nM; with: Cy3 exosite-II aptamer, 400 nM; direction: higher = stronger binding; measurement: mean fluorescence intensity
Target: Prothrombin, mature alpha-thrombin (F2, Homo sapiens, UniProt P00734)
Setting: whole 15-mer aptamer, many near background
GGTTGGTGTGGTTGG (2'F-ANA at 1 3 4 6 8 10 12 14 15): 51.2 a.u.
GGTTGGTGTGGTTGG (2'F-ANA at 1 2 3 4 5 6 7 8 9 11 12 14): 55.6 a.u.
GGTTGGTGTGGTTGG (2'F-ANA at 1 5 6 7 9 11 15): 59.1 a.u.

Study 2 — method: universal PBM; form: double-stranded DNA, one strand shown; medium: in vitro; tested at: not given; direction: higher = stronger binding; measurement: E-score
Target: Sal-like protein 4, full length isoform B (SALL4, Homo sapiens, UniProt Q9UJQ4-2, residues 1-616)
Setting: 8-mer, flanks averaged, mean of replicates
CAGGTATC: 0.066
CCGCGGAG: -0.377
CAGATGAA: 0.0843

Single results of other studies
G3BP1 C-terminal RGG region: Ras GTPase-activating protein-binding protein 1, C-terminal RGG region (G3BP1, Homo sapiens, UniProt Q13283)
Chain of UniProt Q13283 (whole entry, looked up): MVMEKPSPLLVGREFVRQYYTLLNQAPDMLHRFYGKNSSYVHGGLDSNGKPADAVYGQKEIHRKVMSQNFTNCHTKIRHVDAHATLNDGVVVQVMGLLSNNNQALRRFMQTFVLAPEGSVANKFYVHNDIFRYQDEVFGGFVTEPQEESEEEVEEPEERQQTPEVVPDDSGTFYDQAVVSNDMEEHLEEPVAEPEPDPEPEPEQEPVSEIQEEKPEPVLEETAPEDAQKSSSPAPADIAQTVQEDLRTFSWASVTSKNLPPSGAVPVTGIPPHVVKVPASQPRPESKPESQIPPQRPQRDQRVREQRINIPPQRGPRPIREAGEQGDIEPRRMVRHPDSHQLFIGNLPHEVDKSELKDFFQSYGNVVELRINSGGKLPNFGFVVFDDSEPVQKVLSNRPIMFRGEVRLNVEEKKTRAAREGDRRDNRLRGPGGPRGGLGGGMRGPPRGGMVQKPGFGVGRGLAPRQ
GGGAGUUCUACAGUCCGACGAUCCCUGUGCUACACAUCGUAUGUACCGAAUCGGCCCCCCCGGGCCCCCCCGGCCCCCCCGGGGAAAGUAUUAUGUUACGCCGUUCGGAUCUGUGGAAUUCUCGGGUGUCAAGG  log2 enrichment (G3BP1 C-terminal RGG region; RNA Bind-n-Seq; RNA, in vitro; 1 µM, whole 134-nt RNA, ends assumed, with: 150 mM KCl; baseline: input library, higher = stronger binding): -1.57
PhoQ, residues 284 288 289 292 302 303 NSMLDC  fold induction (PhoP, residues 12 14 15 18 19 LWHVM (Escherichia coli, UniProt P23836); Sort-seq, item: YFP reporter; E. coli; PhoQ-PhoP variant library, with: 10 µM Mg2+; baseline: high Mg2+ state, higher = stronger signaling): 23.8
GGGAGUUCUACAGUCCGACGAUCAAGUCCUGUGCUACACAUCGUAUGUACCGAAUCGGGUUUUGGUUUUGGGGUUUUGGAAAGUAUUAUGUUACGCCGUUCGGAUCUGCACUUUGGAAUUCUCGGGUGUCAAGG  log2 enrichment (G3BP1 C-terminal RGG region; RNA Bind-n-Seq; RNA, in vitro; 1 µM, whole 134-nt RNA, ends assumed, with: 150 mM KCl; baseline: input library, higher = stronger binding): -1.33
GGGAGUUCUACAGUCCGACGAUCACCAUGCAGGUGGGCAUCUUUGGGAAGUGGGGCAAGGGGGGGAUAGGGAGGGGGGUAACACUUUGGGAACAGGUGGAAACAGGUCGUUUCUGGAAUUCUCGGGUGUCAAGG (7-deaza-guanosine replaces G)  log2 enrichment (Ras GTPase-activating protein-binding protein 1, full length (G3BP1, Homo sapiens, UniProt Q13283); RNA Bind-n-Seq; RNA, in vitro; 200 nM, whole 134-nt RNA, ends assumed, with: 150 mM LiCl; baseline: input library, higher = stronger binding): -0.0896

Some of these lines once more (study 2):
CAGGTATC: 0.066
